{"data": "Measurements gathered from unrelated publications", "B1": "human CAP1; sequence looked up; chain ADMQNLVERLERAVGRLEAVSHTSDMHRGYADSPSKAGAAPYVQAFDSLLAGPVAEYLKISKEIGGDVQKHAEMVHTGLKLERALLVTASQCQQPAENKLSDLLAPISEQIKEVITFREKNRGSKLFNHLSAVSESIQALGWVAMAPKPGPYVKEMNDAAMFYTNRVLKEYKDVDKKHVDWVKAYLSIWTELQAYIKEFHTTGLAWSKTGPVAKELSGLPSGPSAGSCPPPPPPCPPPPPVSTISCSYESASRSSLFAQINQGESITHALKHVSDDMKTHKNPALKAQSGPVRSGPKPFSAPKPQTSPSPKRATKKEPAVLELEGKKWRVENQENVSNLVIEDTELKQVAYIYKCVNTTLQIKGKINSITVDNCKKLGLVFDDVVGIVEIINSKDVKVQVMGKVPTISINKTDGCHAYLSKNSLDCEIVSAKSSEMNVLIPTEGGDFNEFPVPEQFKTLWNGQKLVTTVTEIAG", "B2": "human ADP/ATP translocase 3; sequence looked up; chain MTEQAISFAKDFLAGGIAAAISKTAVAPIERVKLLLQVQHASKQIAADKQYKGIVDCIVRIPKEQGVLSFWRGNLANVIRYFPTQALNFAFKDKYKQIFLGGVDKHTQFWRYFAGNLASGGAAGATSLCFVYPLDFARTRLAADVGKSGTEREFRGLGDCLVKITKSDGIRGLYQGFSVSVQGIIIYRAAYFGVYDTAKGMLPDPKNTHIVVSWMIAQTVTAVAGVVSYPFDTVRRRMMMQSGRKGADIMYTGTVDCWRKIFRDEGGKAFFKGAWSNVLRGMGGAFVLVLYDELKKVI", "note": "± marks the error that the study gave."}
{"Molecule": "B1 (human CAP1)", "target or system": "PP6C (human)", "assay": "co-immunoprecipitation, IP-MS", "test system": "CYB5R4 knockout cells", "conditions": "concentration not given", "scale": "reference: CYB5R4 knockout over parental", "measurement": "log2 fold change", "result": 0.2}
{"Molecule": "EHWSYGLRPG", "target or system": "HUVEC", "assay": "ICP-OES, refers to: rhenium", "test system": "peptide", "conditions": "concentration not given, 24 h, 37 °C", "measurement": "cellular uptake", "result": "0.054 ppm"}
{"Molecule": "Neuropeptide Y", "assay": "RP-HPLC", "test system": "HALO Phenyl-hexyl column", "conditions": "25 µM, formic acid/methanol, 10 min gradient", "measurement": "retention time", "result": "8.9 min"}
{"Molecule": "B2 (human ADP/ATP translocase 3)", "target or system": "PP6C (human)", "assay": "co-immunoprecipitation, IP-MS", "test system": "CYB5R4 knockout cells", "conditions": "concentration not given", "scale": "reference: CYB5R4 knockout over parental", "measurement": "log2 fold change", "result": -0.19}
{"Molecule": "insulin", "assay": "LC-MS/MS", "test system": "pooled human serum, high level", "conditions": "24 h, 4 °C, stability before sample preparation", "scale": "reference: untreated control", "measurement": "bias", "result": "-11.9%"}
{"Molecule": "adrenomedullin", "assay": "RP-HPLC", "test system": "HALO RP-amide column", "conditions": "25 µM, formic acid/methanol, 25 min gradient", "measurement": "retention time", "result": "13.8 min"}
{"Molecule": "insulin icodec", "test system": "human mild hepatic impairment (Child-Pugh A), serum", "conditions": "subcutaneous, 1.5 U/kg single dose", "scale": "reference: mild impairment over normal function", "measurement": "AUC(0-inf) ratio", "result": 1.13}
{"Molecule": "insulin degludec", "test system": "human", "conditions": "subcutaneous, 0.4 IU/kg, 3 FC level, fat content group, single dose, reference formulation", "measurement": "Cmax", "result": "0.0154 ± 0.0024 µg/mL"}
{"Molecule": "KRRRC", "target or system": "HUVEC", "assay": "ICP-OES, refers to: rhenium", "test system": "peptide", "conditions": "concentration not given, 24 h, 37 °C", "measurement": "cellular uptake", "result": "0.237 ppm"}
{"Molecule": "durvalumab", "test system": "human, plasma", "conditions": "intravenous, 1500 mg, cycle 4 day 1, added: adavosertib 300 mg once daily", "measurement": "Ctrough", "result": "226 µg/mL"}
{"note": "Repeated from above:"}
{"Molecule": "insulin icodec", "test system": "human mild hepatic impairment (Child-Pugh A), serum", "conditions": "subcutaneous, 1.5 U/kg single dose", "scale": "reference: mild impairment over normal function", "measurement": "AUC(0-inf) ratio", "result": 1.13}
